# Results collected from several papers.
# Lines come from different studies, so protocols differ.
# Organism: Staphylococcus aureus
Structure (SMILES),assay,system,setting,MIC
C=C1NC(=O)C2C[S+]([O-])CC3NC(=O)C(CSC(C)C(NC(=S)C(Cc4cnc[nH]4)NC(=O)c4csc(C(C)NC(C)=O)n4)C(=O)N[C@H](CC(C)C(=O)NC(=O)CC(C(=O)O)NC(=O)C(C)NC3=O)C(=O)N2)NC(=O)[C@@H]2CCCN2C(=O)[C@@H](CC(C)C)NC1=O (stereo partly shown),bacterial growth,ATCC 29213,,> 32 µg/mL
CC[C@H](C)[C@H](NC(=O)[C@@H](CCCNC(=N)N)NC(=O)[C@H](CCCNC(=N)N)NC(=O)[C@H](CC(C)C)NC(=O)[C@H](Cc1c[nH]c2ccccc12)NC(=O)[C@H](CCCNC(=N)N)NC(=O)[C@@H]1CCCN1C(=O)[C@H](CCCNC(=N)N)NC(=O)[C@@H]1CCCN1C(=O)[C@H](CC(C)C)NC(=O)[C@H](Cc1ccc(O)cc1)NC(=O)[C@@H]1CCCN1C(=O)[C@@H]1CCCN1C(=O)[C@H](CCCCN)NC(=O)[C@H](CC(=O)O)NC(=O)[C@@H](N)C(C)C)C(=O)N[C@@H](Cc1ccc(O)cc1)C(=O)N[C@@H](CC(N)=O)C(=O)N[C@H](CCCNC(=N)N)C(N)=O,broth microdilution,DSM 6247,"18 h, 37 °C, 25% MHB2",64 µg/mL
CCCCCCCCCCCCCC(=O)N[C@H]1C(=O)N[C@@H](CN)C(=O)N[C@@H](CO)C(=O)N[C@@H](Cc2ccc(O)cc2)C(=O)O[C@H]1C,,SH1000,"together with: menaquinone-4, molar ratio 2",2 µg/mL
CC[C@H](C)[C@H](N)C(=O)N[C@H](C)C(=O)N[C@@H](CC(C)C)C(=O)N[C@H](CCC(=O)O)C(=O)N[C@H](C(=O)N[C@H]1CCCCNC(=O)[C@H](CC(N)=O)NC(=O)[C@@H](CC(=O)O)NC(=O)[C@H](Cc2c[nH]cn2)NC(=O)[C@@H](Cc2ccccc2)NC(=O)[C@H]([C@@H](C)CC)NC(=O)[C@@H](CCCN)NC1=O)[C@@H](C)CC,,USA300 methicillin-resistant,"18 h, 37 °C, 0.3 mM ZnSO4 LB",> 64 µg/mL
C#CCOc1ccc(CN[C@@]2(C)C[C@H](O[C@H]3[C@H](Oc4c5cc6cc4Oc4ccc(cc4Cl)[C@@H](O)[C@@H](NC(=O)[C@@H](CC(C)C)NC)C(=O)N[C@@H](CC(N)=O)C(=O)N[C@H]6C(=O)N[C@H]4C(=O)N[C@H](C(=O)N[C@H](C(=O)NCC(N)=O)c6cc(O)cc(O)c6-c6cc4ccc6O)[C@H](O)c4ccc(c(Cl)c4)O5)O[C@H](CO)[C@@H](O)[C@@H]3O)O[C@@H](C)[C@H]2O)cc1OC,,LIM-2 VISA,,2 µM
Cc1ccc2[nH]c3c(c2c1)CCCC3NCCc1ccc(O)cc1 (stereo not shown),broth microdilution,Mu50 VISA,,16 µg/mL
CC(C)C[C@@H]1NC(=O)[C@@H](CC(C)C)NC(=O)[C@H](CCN)NC(=O)[C@@H](NC(=O)[C@H](CCN)NC(=O)[C@@H](NC(=O)CCCCN=[N+]=[N-])[C@@H](C)O)CCNC(=O)[C@H]([C@@H](C)O)NC(=O)[C@H](CCN)NC(=O)[C@H](CCN)NC1=O,broth microdilution,"MRSA USA300, cation-adjusted Mueller-Hinton broth","20 to 24 h, 37 °C, 0.002% polysorbate 80",> 16 µg/mL
COc1ccc2ccc(O)c(/C=N/[C@H]3CCCC[C@H]3/N=C/c3cc(C(C)(C)C)ccc3O)c2c1,"bacterial growth, broth microdilution",vancomycin-intermediate,,> 40 µM
CCCCCCC#Cc1cncc(-c2nnc(SCc3ccc(Cl)cc3)n2C)c1,broth microdilution,Mu50 MRSA VISA,"18 to 24 h, 37 °C",> 64 µg/mL
CN[C@H](CC(C)C)C(=O)N[C@H]1C(=O)N[C@@H](CC(N)=O)C(=O)N[C@H]2C(=O)N[C@H]3C(=O)N[C@H](C(=O)N[C@H](C(=O)NCc4cn(CCCCC(=O)N[C@H](C(=O)N[C@@H](CCN)C(=O)N[C@H]5CCNC(=O)[C@H]([C@@H](C)O)NC(=O)[C@H](CCN)NC(=O)[C@H](CCN)NC(=O)[C@H](CC(C)C)NC(=O)[C@@H](CC(C)C)NC(=O)[C@H](CCN)NC5=O)[C@@H](C)O)nn4)c4cc(O)cc(O)c4-c4cc3ccc4O)[C@H](O)c3ccc(c(Cl)c3)Oc3cc2cc(c3O[C@@H]2O[C@H](CO)[C@@H](O)[C@H](O)[C@H]2O[C@H]2C[C@](C)(N)[C@H](O)[C@H](C)O2)Oc2ccc(cc2Cl)[C@H]1O,broth microdilution,"VISA NRS402, tryptic soy broth","20 to 24 h, 37 °C, 0.002% polysorbate 80",8 µg/mL
CC(C)CCCCCCCCC/C=C/C(=O)N[C@@H](CC(N)=O)C(=O)N[C@H]1CNC(=O)[C@@H]2CCCN2C(=O)[C@H](C(C)C)NC(=O)[C@@H](CN)NC(=O)CNC(=O)[C@H](CC(=O)O)NC(=O)CNC(=O)[C@H](CC(=O)O)NC(=O)[C@H](CC(=O)O)NC(=O)[C@H]2CCCCN2C1=O,broth microdilution,"MRSA USA300, Mueller-Hinton broth, Mg2+ 10 mg/L","16 h, 37 °C, together with: Ca2+ 5 mM",4 µg/mL
CC(C)C[C@@H]1NC(=O)[C@H](CCCCN)NC(=O)CNC(=O)[C@H]2CCCN2C(=O)[C@H](CCCCN)NC(=O)[C@H](CC(C)C)NC(=O)[C@H](CCCCN)NC(=O)C2CCC=CCCC(NC(=O)[C@H](CCCCN)NC1=O)C(=O)N[C@@H](CCCCN)C(=O)NC(C(N)=O)CCC=CCCC(N)C(=O)N[C@@H](CCCCN)C(=O)N2 (stereo partly shown),broth microdilution,"ATCC 29737, Mueller-Hinton broth","18 h, 37 °C",128 µM
CC[C@H](C)[C@H](NC(=O)[C@H](CCCCN)NC(=O)[C@H](CCC(N)=O)NC(=O)[C@H](C)NC(=O)[C@H](Cc1ccc(O)cc1)NC(=O)[C@H](CCC(=O)O)NC(=O)[C@H](CCCCN)NC(=O)[C@H](C)NC(=O)[C@H](CC(C)C)NC(=O)[C@H](CCCNC(=N)N)NC(=O)[C@H](CC(C)C)NC(=O)CNC(=O)[C@H](CCCCN)NC(=O)[C@H](C)NC(=O)[C@H](CCCNC(=N)N)NC(=O)[C@H](CC(C)C)NC(=O)[C@H](CCCCN)NC(=O)[C@H](CCC(N)=O)NC(=O)[C@H](C)NC(=O)[C@H](CC(C)C)NC(=O)[C@H](CCCCN)NC(=O)[C@H](CO)NC(=O)[C@H](CCCCN)NC(=O)[C@@H](N)Cc1c[nH]c2ccccc12)C(=O)N[C@@H](CC(C)C)C(=O)N[C@@H](CC(N)=O)C(=O)O,broth microdilution,"ATCC 29213, Mueller-Hinton broth","16 to 20 h, 37 °C",141 µg/mL
